Measurements gathered from unrelated publications.
Lines come from different studies, so protocols differ. “And” joins repeats or separate records; there may be more than shown. ± gives the spread as reported.
PPO3: PPO3 (Agaricus bisporus, UniProt C7FF04)
USP14: Ubiquitin carboxyl-terminal hydrolase 14 (USP14, Homo sapiens, UniProt P54578)
FN3KRP C24: Ketosamine-3-kinase, C24 (FN3KRP, Homo sapiens, UniProt Q9HA64)
Gria2/Glutamate receptor 3: Gria2/Glutamate receptor 3 (Rattus norvegicus, UniProt P19491+P19492)
SLC6A9: Sodium- and chloride-dependent glycine transporter 1 (SLC6A9, Homo sapiens, UniProt P48067)
MAPK8: Mitogen-activated protein kinase 8 (MAPK8, Homo sapiens, UniProt P45983)
T1: DNA hairpin, hairpin; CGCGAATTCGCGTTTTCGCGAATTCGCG

Cc1ccc(-c2cc(CN3c4ccccc4C=Cc4ccccc43)on2)cc1  apparent Km (PPO3; enzyme activity, inhibitor; concentration not given): 4.99 mM
O=C(N[C@@H](Cc1ccc(OCCCCC2CCNCC2)cc1)C(=O)O)c1nc2ccccc2o1.O=C(O)C(F)(F)F  fibrinogen binding (Integrin alpha-IIb/beta-3 (Homo sapiens, UniProt P05106+P08514); inhibitor, flow cytometry; washed platelets, human; 8000 nM, together with: ADP and Alexa647-fibrinogen; reference: untreated): 0
Cc1ncsc1-c1ccc(CNC(=O)[C@@H]2C[C@@H](O)CN2C(=O)[C@@H](NC(=O)C2(F)CC2)C(C)(C)C)c(OCCC2CN(c3nc(NCC(C)(C)C4(O)CCOC4)nc(N4CCC[C@H]4Cn4ccnn4)n3)C2)c1 (stereo partly drawn)  Dmax (VHL/BRD9 (Homo sapiens, UniProt P40337+Q9H8M2); BRD9 degradation, degrader, HiBiT; HEK293T BRD9-HiBiT; 15 h): 60%
N#CC(=CNc1ccc(C(=O)O)cc1)c1nc2ccccc2[nH]1  inhibition (USP14; enzyme activity, inhibitor; 17 µM): 4%
C=CC(=O)N1CCCC(n2c(=O)c3ncccc3n(Cc3ccc(Oc4ccccc4)cc3)c2=O)C1 (stereo not drawn)  melting temperature shift (USP14; thermal proteome profiling; 10 µM, destabilized proteins, unit not given; reference: vehicle): -4.17
CC[C@H](C)[C@@H]1NC(=O)[C@H](Cc2ccccc2)NC(=O)[C@H](CCC(=O)O)NC(=O)[C@H](CCCNC(=N)N)NC(=O)CNC(=O)[C@@H](NC(=O)[C@H](CC(C)C)NC(=O)[C@H](CCCNC(=N)N)NC(=O)[C@@H](NC(=O)CNC(=O)[C@H](Cc2ccc(O)cc2)NC(=O)[C@@H]2CCCN2C(=O)[C@H](C)NC(=O)[C@H](C)NC(=O)[C@@H](N)CCCNC(=N)N)C(C)C)CSSC[C@@H]2NC(=O)[C@@H](NC(=O)[C@H](CO)NC(=O)[C@H](CO)NC(=O)[C@H](CO)NC(=O)[C@H](CC(C)C)NC(=O)CNC(=O)[C@H](C)NC(=O)[C@H](CC(C)C)NC(=O)[C@@H](NC(=O)[C@@H](N)CC(=O)O)C(C)C)CSSC[C@H](NC(=O)CNC(=O)[C@H](Cc3c[nH]c4ccccc34)NC(=O)[C@H](CCCCN)NC2=O)C(=O)N[C@@H](CO)C(=O)N[C@@H](CCCCN)C(=O)N[C@@H](CO)C(=O)N[C@@H](CCC(=O)O)C(=O)N[C@@H]([C@@H](C)CC)C(=O)N[C@@H](CO)C(=O)N[C@@H](CO)C(=O)N[C@@H](CC(C)C)C(=O)N[C@H](C(=O)O)CSSC[C@@H](C(=O)NCC(=O)NCC(=O)N[C@@H](CO)C(=O)N[C@@H](CCCNC(=N)N)C(=O)N[C@@H](Cc2c[nH]c3ccccc23)C(=O)O)NC(=O)[C@H]([C@@H](C)O)NC(=O)[C@H](Cc2ccccc2)NC(=O)[C@H]([C@@H](C)CC)NC(=O)[C@H](C(C)C)NC(=O)[C@H](C)NC(=O)[C@H](CCCNC(=N)N)NC1=O  Δemax (RXFP4 (Homo sapiens, UniProt Q8TDU9, R208A); R208A mutant; reference: wild type): inactive
CCCCCC(O)/C=C/C=O (stereo not drawn)  isoTOP-ABPP competition ratio (FN3KRP C24; competitive isoTOP-ABPP; proteome, soluble, MDA-MB-231; 100 µM, 60 min, together with: iodoacetamide probe; reference: DMSO over compound-treated, higher = stronger cysteine blockade): 15
COC(=O)Cc1cc2c(cc1C(=O)c1cccc(Br)c1)OCO2  current amplitude (Gria2/Glutamate receptor 3; glutamate-evoked current, whole-cell patch clamp; HEK-293T; concentration not given, pH 7.4, holding potential -60 mV, together with: 10 mM glutamate): 211 ± 17 pA
COc1cc(Nc2nccc(-c3cnn4nc(OC)ccc34)n2)cc(C(F)(F)F)c1  remaining binding (PIK3CA (Homo sapiens, UniProt P42336, I800L); binding; 1 µM): 100%
CC[C@H](C)[C@H](NC(=O)[C@@H](NC(=O)[C@@H](NC(=O)[C@@H](NC(=O)[C@H](CCCNC(=N)N)NC(=O)[C@H](CCC(=O)O)NC(=O)[C@H](CCC(=O)O)NC(=O)[C@H](C)NC(=O)[C@H](CCC(=O)O)NC(=O)CNC(=O)[C@H](C)NC(=O)CN)C(C)C)C(C)C)C(C)C)C(=O)N[C@@H](CC(=O)O)C(=O)N[C@@H](CC(=O)O)C(=O)N[C@@H](CC(=O)O)C(=O)N[C@@H](CCC(=O)O)C(=O)N[C@@H](CC(=O)O)C(=O)N[C@@H](CC(=O)O)C(=O)N[C@@H](CC(=O)O)C(=O)N[C@@H](C)C(=O)N[C@@H](CCC(=O)O)C(=O)N[C@@H](CC(N)=O)C(=O)N[C@@H](CO)C(=O)N[C@@H](CO)C(=O)N[C@@H](CO)C(=O)N[C@@H](CCCNC(=N)N)C(=O)N[C@@H](Cc1ccc(O)cc1)C(=O)O  enthalpy change (ΔH) (Small ubiquitin-related modifier 1 (Homo sapiens, UniProt P63165, C52A); isothermal titration calorimetry; concentration not given, pH 7.4, SUMO1 construct): 5.25 ± 0.03 kcal/mol
CC(C)C[C@@H]1NC(=O)CN(C)C(=O)[C@H](Cc2c[nH]c3ccccc23)NC(=O)[C@H](CCC(=O)O)NC(=O)[C@H](Cc2ccccc2)N(C)C(=O)[C@H](Cc2ccccc2)NC(=O)CSC[C@@H](C(N)=O)NC(=O)[C@H](CCCCN)NC(=O)[C@H](C(C)C)NC(=O)[C@H](Cc2ccc(O)cc2)NC(=O)[C@H](Cc2ccc(O)cc2)NC(=O)[C@H](C(C)C)NC(=O)[C@H](Cc2ccccc2)N(C)C(=O)[C@H](CCCNC(=N)N)NC1=O  ΔTm (AT-rich interactive domain-containing protein 1B (ARID1B, Homo sapiens, UniProt Q8NFD5, A2203Q/I2161S/V2196N); differential scanning fluorimetry; 5 µM, I2078S/V2113N/A2120Q mutant): 0 °C
O=C(O)Cc1cc2c(cc1C(=O)c1cccc(Cl)c1)OCO2  desensitization time constant (Gria2/Glutamate receptor 3; glutamate-evoked current, whole-cell patch clamp; HEK-293T; concentration not given, weighted tau, 500 ms pulse, together with: glutamate): 0.8 ± 0.06 ms
O=C1c2sc(-c3ccc(N4CCC(CO)CC4)nc3F)nc2CCN1c1cccnc1  specific binding (TAR DNA-binding protein 43, aggregated (TARDBP, Homo sapiens, UniProt Q13148); radioligand binding; human, FTLD-TDP type C sarkosyl-insoluble extract; 52.06 nM): 0.795 nM and 0.454 nM and 0.487 nM
NC(=S)Cc1nc2ccccc2s1  inhibition (USP14; enzyme activity, inhibitor; 17 µM): 30%
COc1ccc(C(O)(c2ccc(OC)cc2)c2ccc3nccn3c2)cc1  remaining signal (SLC6A9; cell-free assay; 1 µM): 98%
COC(=O)[C@@]1(C)C=C(C(=O)Nc2cccc(C(=O)Nc3ccc(Nc4nccc(-c5cccnc5)n4)c(C)c3)c2)C(=O)CC1  remaining activity (MAPK8; enzyme activity, inhibitor; 44.44 µM, 18 h, unit not given, together with: GSH 10 mM pre-incubation; reference: vehicle): 0.00252
C[n+]1cc(/C=N/NC(=O)N/N=C/c2cc3ccccc3[n+](C)c2)cc2ccccc21  ΔTm (hp2 hairpin duplex DNA; FRET melting; 1 µM): 1.6 ± 0.3 °C
OC[C@H]1O[C@@H](Oc2cc3c(O)cc(O)cc3[o+]c2-c2cc(O)c(O)c(O)c2)[C@H](O)[C@@H](O)[C@H]1O  binding entropy (PPO3; fluorescence quenching; concentration not given): -296.9 ± 1.57 J/(mol·K)
CN(CCNCc1cc(C(=O)[O-])ccc1[O-])CCNCc1cc(C(=O)[O-])ccc1[O-].[Cl-].[Fe+3].[K+].[K+]  observed transchelation rate constant (TF (Homo sapiens, UniProt P02787); refers to: Fe; 0.05 mM, pH 7.4, 37 °C, together with: transferrin 0.10 mM): 0.068 min⁻¹
CN1CCN(c2ccc3nc(-c4ccc5nc(-c6ccc(OCCCCNC(=O)c7cccc8c7C(=O)OC87c8ccc(N(C)C)cc8C(C)(C)c8cc(N(C)C)ccc87)cc6)[nH]c5c4)[nH]c3c2)CC1  Kd (T1, DNA hairpin, hairpin; fluorescence titration; 1 h, apparent, single-site fit, together with: probe 3 nM): 1300 nM
COc1ccc(C(=O)c2c(C(=O)NCCCN(C)C)oc3ccc(Cl)cc3c2=O)cc1OC  Hill slope (GHSR (Homo sapiens, UniProt Q92847); calcium mobilization; HEK293, stably transfected): 1.4 ± 0.03
Cc1ccc(C(=O)Nc2ccc(CN3CCN(C)CC3)c(C(F)(F)F)c2)cc1C#Cc1cnc2cccnn12  Hill slope (SIK3 (Homo sapiens, UniProt Q9Y2K2); target engagement, NanoBRET; human cells): 0.703
CCCCCCCCCCCCC/C=C/C=O  isoTOP-ABPP competition ratio (FN3KRP C24; competitive isoTOP-ABPP; proteome, soluble, MDA-MB-231; 100 µM, 60 min, together with: iodoacetamide probe; reference: DMSO over compound-treated, higher = stronger cysteine blockade): 1
C[Si](C)(C)C[C@@H](CN)CC(=O)O  inhibition (P2X receptor, rabbit; binding, radioligand binding; 75 µM, together with: [3H]alpha,beta-methylene-ATP): -16%
C#CCOC(=O)[C@@]1(C)C=C(C(=O)OC(C)(C)C)C(=O)CC1  normalized kinase activity (MAPK8; enzyme activity, D-SENSOR; 4.938 µM, single replicate): 0.867 and 0.821 and 1.01
COc1cc(/C=C/C=O)cc(OC)c1O  Hill coefficient (uncharacterized protein (Solanum tuberosum, UniProt M0ZZL3); enzyme activity; inhibitory mode parameter): 2 ± 0.2
O=C(N/N=C/c1ccc2c(ccc[n+]2Cc2ccccc2)c1)c1cccc(C(=O)N/N=C/c2ccc3c(ccc[n+]3Cc3ccccc3)c2)c1  ΔTm (hp2 hairpin duplex DNA; FRET melting; 1 µM, together with: ds26 10 µM): 1.1 ± 0.1 °C
N#CN1CC[C@H](C(=O)Nc2nc3c(s2)CN(C(=O)Cn2cc(COCCOCCOCCOCCNC(=O)CCCC[C@@H]4SC[C@@H]5NC(=O)N[C@@H]54)nn2)CC3)C1  iBAQ abundance ((E3-independent) E2 ubiquitin-conjugating enzyme (UBE2O, Homo sapiens, UniProt Q9C0C9); probe binding, affinity probe, neutravidin pull-down LC-MS/MS; HEK293T, cell lysate; 5 µM, 1 h, mean of three replicates, unit not given; higher = more pulled down): 337000
COc1ccc(C(OCCN2CCC[C@@H]2C(=O)O)(c2ccc(OC)cc2)c2ccc(OC)cc2)cc1  remaining signal (SLC6A9; cell-free assay; 1 µM): 18.2%
COC(=O)Cc1cc2c(cc1C(=O)c1cccc(I)c1)OCO2  current amplitude (Gria2/Glutamate receptor 3; glutamate-evoked current, whole-cell patch clamp; HEK-293T; concentration not given, pH 7.4, holding potential -60 mV, together with: 10 mM glutamate): 291 ± 30 pA
O=C1Nc2ccccc2C1C1(O)C(=O)Nc2ccc(F)cc21 (stereo not drawn)  inhibition (USP14; enzyme activity, inhibitor; 17 µM): 5%
CC(=O)N[C@@H](Cc1ccc(O)cc1)C(=O)N[C@@H](CC(N)=O)C(=O)N1CCC[C@H]1C(=O)N[C@@H](Cc1ccccc1)C(=O)N[C@@H](CCC(=O)O)C(=O)N[C@@H](CCC(=O)O)C(=O)NCC(=O)NCC(N)=O  binding stoichiometry (EH domain-containing protein 1, EH domain (Homo sapiens, UniProt Q9H4M9); ITC; concentration not given, 150 mM NaCl): 0.96 ± 0.06
CCOC(=O)C1(C)C(Br)=C(Cl)C(=O)N1c1ccc(Cl)cc1 (stereo not drawn)  inhibition (Rac GTPase-activating protein 1 (Homo sapiens, UniProt Q9H0H5); GAP activity, malachite green phosphate; concentration not given, orthogonal retest): 54.4%
CC(C)(C)OC(=O)NC(Cc1cccc(Cl)c1)C(=O)NCC=CS(=O)(=O)c1ccccc1 (stereo not drawn)  kinact/Ki (Cathepsin S (CTSS, Homo sapiens, UniProt P25774); inhibitor; together with: Z-Phe-Arg-AMC): 2940 M⁻¹ s⁻¹
C#CCOC(=O)[C@@]1(C)C=C(C(=O)Nc2cccc(C(=O)Nc3ccc(C)c(Nc4nccc(-c5cccnc5)n4)c3)c2)C(=O)CC1  remaining activity (MAPK9 (Homo sapiens, UniProt P45984); enzyme activity, inhibitor; 0.5487 µM, unit not given; reference: vehicle): 0.274
COc1ccc(NC(=S)Nc2ccc(N3CCOCC3)c3nonc23)cc1OC  inhibition (USP14; enzyme activity, inhibitor; 17 µM): 92%

For quick reference, copied from above:
CCCCCCCCCCCCC/C=C/C=O  isoTOP-ABPP competition ratio (FN3KRP C24; competitive isoTOP-ABPP; proteome, soluble, MDA-MB-231; 100 µM, 60 min, together with: iodoacetamide probe; reference: DMSO over compound-treated, higher = stronger cysteine blockade): 1
C[Si](C)(C)C[C@@H](CN)CC(=O)O  inhibition (P2X receptor, rabbit; binding, radioligand binding; 75 µM, together with: [3H]alpha,beta-methylene-ATP): -16%
C#CCOC(=O)[C@@]1(C)C=C(C(=O)OC(C)(C)C)C(=O)CC1  normalized kinase activity (MAPK8; enzyme activity, D-SENSOR; 4.938 µM, single replicate): 0.867 and 0.821 and 1.01
COc1cc(/C=C/C=O)cc(OC)c1O  Hill coefficient (uncharacterized protein (Solanum tuberosum, UniProt M0ZZL3); enzyme activity; inhibitory mode parameter): 2 ± 0.2
O=C(N/N=C/c1ccc2c(ccc[n+]2Cc2ccccc2)c1)c1cccc(C(=O)N/N=C/c2ccc3c(ccc[n+]3Cc3ccccc3)c2)c1  ΔTm (hp2 hairpin duplex DNA; FRET melting; 1 µM, together with: ds26 10 µM): 1.1 ± 0.1 °C
